Results collected from several papers.
A part holds a random share of what one study measured. Positions count from the first letter of the parent shown.

Block 1 — method: DHFR PCA, deep sequencing; sample: yeast; together with: (+)-ABA 0.39 µM; baseline: wild-type fitted maximum; direction: higher = stronger binding; endpoint: relative binding score
Target: ABI1, truncated, D143A, DHFR fusion (Arabidopsis thaliana)
Notes: methotrexate growth selection, single substitutions
Parent: PYL1, truncated, DHFR fusion (Arabidopsis thaliana); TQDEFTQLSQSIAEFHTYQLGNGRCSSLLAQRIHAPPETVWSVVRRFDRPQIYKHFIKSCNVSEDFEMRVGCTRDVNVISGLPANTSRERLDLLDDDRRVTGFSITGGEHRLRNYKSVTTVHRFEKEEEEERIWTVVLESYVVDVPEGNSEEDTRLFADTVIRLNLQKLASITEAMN
Change = E130D; value = 61.7%
Change = L20Q; value = 51.2%
Change = T86Q; value = 15.9%
Change = S27W; value = -5.66%
Change = I57R; value = -1.64%

Block 2 — target: CCNE1, cyclin fold, Cln2 fusion (human); method: yeast growth competition, sequencing; sample: yeast; notes: strong parent motif; baseline: not given; direction: higher = stronger binding; endpoint: normalised enrichment score
Parent: RBL1 docking peptide (human); GSAKRRLFGEDPP; partner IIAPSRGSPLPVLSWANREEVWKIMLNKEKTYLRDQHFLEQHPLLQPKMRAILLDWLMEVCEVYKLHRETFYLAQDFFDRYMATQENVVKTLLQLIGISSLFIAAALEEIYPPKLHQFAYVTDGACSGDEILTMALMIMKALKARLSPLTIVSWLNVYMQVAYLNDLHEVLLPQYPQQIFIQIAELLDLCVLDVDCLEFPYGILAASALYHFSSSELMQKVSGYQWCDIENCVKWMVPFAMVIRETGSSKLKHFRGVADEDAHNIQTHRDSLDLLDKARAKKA
Change = GSAPRRLFGEDPP [K4P]; value = 0.591
Change = GSAKRRTFGEDPP [L7T]; value = 0.086
Change = GSAKRRLFGKDPP [E10K]; value = 3.53
Change = GSALRRLFGEDPP [K4L]; value = 0.465
Change = GQAKRRLFGEDPP [S2Q]; value = 5.93
Change = GRAKRRLFGEDPP [S2R]; value = 5.92
Change = GSAKRRLDGEDPP [F8D]; value = 0.616
Change = GSAKRKLFGEDPP [R6K]; value = 5.9

Block 3 — method: protein-binding microarray; form: double-stranded DNA, one strand shown; sample: in vitro; tested at: 250 nM; notes: 60-bp whole probe; together with: salmon DNA 0.4 mg/ml; baseline: random background probes; direction: higher = stronger binding; endpoint: log fluorescence; shared flanks, not repeated: GCCTAGCAC … GTCTTGATTCGCTTGACGCTGCTG
Target: Interferon regulatory factor 5, full length, phosphomimetic (IRF5, Homo sapiens, UniProt Q13568-2, residues 1-514, K96S/S451D/S453D/S456D/S462D)
Strand = TCGCCTTTTTTGTTGTTTTTGTGCTAG; value = 1.53 z-score
Strand = GACGATTTCAGTTCCGAGATGTGCTAG; value = 1.44 z-score
Strand = GACGGTTTCCACTATCGGGACGTGCTA; value = 2.64 z-score
Strand = TTAGGTTTCGGTTCCGGTGAGTGCTAG; value = 10.3 z-score
Strand = TTAGATCTCAGTCTCGGTTAGTGCTAG; value = 1.14 z-score

Single results of other studies
Substance = PhoQ, residues 284 288 289 292 302 303 GNNTDL; target = PhoP, residues 12 14 15 18 19 HLGGL (Escherichia coli, UniProt P23836); test = Sort-seq, refers to: YFP reporter; system = E. coli; conditions = PhoQ-PhoP variant library, together with: 10 µM Mg2+; how to read = baseline: high Mg2+ state, higher = stronger signaling; endpoint = fold induction; value = 6.08

Some of these lines once more (block 3):
Strand = TTAGATCTCAGTCTCGGTTAGTGCTAG; value = 1.14 z-score
